# Measured values pooled from the literature.
# Lines come from different studies, so protocols differ. Numbers after ± are the reported error.
# Method: steady-state kinetics
# B1: oxdC (Bacillus subtilis, UniProt O34714); chain MKKQNDIPQPIRGDKGATVKIPRNIERDRQNPDMLVPPETDHGTVSNMKFSFSDTHNRLEKGGYAREVTVRELPISENLASVNMRLKPGAIRELHWHKEAEWAYMIYGSARVTIVDEKGRSFIDDVGEGDLWYFPSGLPHSIQALEEGAEFLLVFDDGSFSENSTFQLTDWLAHTPKEVIAANFGVTKEEISNLPGKEKYIFENQLPGSLKDDIVEGPNGEVPYPFTYRLLEQEPIESEGGKVYIADSTNFKVSKTIASALVTVEPGAMRELHWHPNTHEWQYYISGKARMTVFASDGHARTFNYQAGDVGYVPFAMGHYVENIGDEPLVFLEIFKDDHYADVSLNQWLAMLPETFVQAHLDLGKDFTDVLSKEKHPVVKKKCSK
# B2: protein (Shewanella denitrificans, UniProt Q12KT8); chain MIHKLADVQSQNIGDNTKVWQFCVILAGAVIGRNCNICANSLIENDVVIGDNVTIKSGVQIWDGIHIQDDVFIGPNVTFTNDKQPRSKIYPDEYLKTIVKKGASIGANSTILPGILIGENAMVGAGAVITKNVPDNAIVIGNPGRITGYVEANTGVIMPSNNFELKLQMSKVKGVSLHKFHLVNDLRGNLSVGEFEKDIPFTPKRYFTVFGVPNKEVRGEHAHKECKQFLICVSGNCSVLVDDGENREEYVLDSIDKGIYLPPMTWGVQYKYSKDAVLLVFASHYYDSDDYIRDYSTFKQMRQN
# B3: SUOX R529M/V531M/Y400N (Homo sapiens, UniProt P51687); chain ESTHIYTKEEVSSHTSPETGIWVTLGSEVFDVTEFVDLHPGGPSKLMLAAGGPLEPFWALYAVHNQSHVRELLAQYKIGELNPEDKVAPTVETSDPYADDPVRHPALKVNSQRPFNAEPPPELLTENYITPNPIFFTRNHLPVPNLDPDTYRLHVVGAPGGQSLSLSLDDLHNFPRYEITVTLQCAGNRRSEMTQVKEVKGLEWRTGAISTARWAGARLCDVLAQAGHQLCETEAHVCFEGLDSDPTGTAYGASIPLARAMDPEAEVLLAYEMNGQPLPRDHGFPVRVVVPGVVGARHVKWLGRVSVQPEESYSHWQRRDNKGFSPSVDWETVDFDSAPSIQELPVQSAITEPRDGETVESGEVTIKGYAWSGGGRAVIRVDVSLDGGLTWQVAKLDGEEQRPRKAWAWRLWQLKAPVPAGQKELNIVCKAVDDGYNVQPDTVAPIWNLMGMLSNAWHRVHVYVSP
# B4: enzyme (Irpex lacteus, UniProt A0A510I1H7); chain QSQVWGQCGGIGWTGATTCVAGSVCTKSNDYYSQCIPGAAAPSSAPPASTPVSVPPSQPSGSSGGLANIPASKLTQFSNFGTNPNNVQMFVYKPKNVAANPPLIVASHYCSGTAQAYFTGSKFAQLAETYGYVVIFPSSPHSGTCWDVSSDETLMHDGGSDSLSIANAARFAISNWGVDPNRVFAVGTSSGAMMTSVLAGAYPDIFKAGIVDSGVAFGCFAVPGQPEDSWNSQCSEGQLVLTGQQWAQKVKNAFPGFTGTYPKMQVWHGTADTTLYPQNFFEEVKQWTTIFNYPSTPLSNVTQTNLGSNYHNATFGPNFQAILATGVGHTVPLFEQQYLQFLGIA
# B5: LYS1 C205S/D319A (Saccharomyces cerevisiae, UniProt P38998); chain MAAVTLHLRAETKPLEARAALTPTTVKKLIAKGFKIYVEDSPQSTFNINEYRQAGAIIVPAGSWKTAPRDRIIIGLKEMPETDTFPLVHEHIQFAHCYKDQAGWQNVLMRFIKGHGTLYDLEFLENDQGRRVAAFGFYAGFAGAALGVRDWAFKQTHSDDEDLPAVSPYPNEKALVKDVTKDYKEALATGARKPTVLIIGALGRSGSGAIDLLHKVGIPDANILKWDIKETSRGGPFDEIPQADIFINCIYLSKPIAPFTNMEKLNNPNRRLRTVVDVSADTTNPHNPIPIYTVATVFNKPTVLVPTTAGPKLSVISIAHLPSLLPREASEFFSHDLLPSLELLPQRKTAPVWVRAKKLFDRHCARVKRSSRL
# B6: protein F222A (Planktothrix agardhii, UniProt F5B6Z0); chain MIVNVIQKDRLKEQKLQFIRNHQQAFDVEPIYPLPLFEDFVTSIEGDCSLEASCKIESDKLIASRFLLFFEDKTQEWQKYLHQSLTFFGLVENRVGVKINYSLLQQFLGSSFDFSKVTVLSAGIDLRNNLAESSLKMHIRIKDYPEKLDKAFALSDGAADGNYLKDFVNLIGFDFYFNGKSEIEIYAEVQEDDFFKPEINNLVWQHFPKTALQPLKASSLFATGLSKANNNPVLYYHLKNRQDLTNYFKLNDTAQRVHSFYQHQDILPYMWVGTAQKELEKTRIENIRLYYYKSFKMESN
# B7: Tcur_2987 W263A (Thermomonospora curvata, UniProt D1A807); chain ACSEERAAGARPSATQTTGTATEPFHGPHQAGIATPPQAHAVFLGLDLRKGTGRKELGRLMRLLTDDARRLTQGRPALADPEPDLAPLPSRLTFTFGFGPGLFKAAGLEKQRPEGLRPLPPFKVDRLEDRWSGGDLLVQICCDDPITLAHALRMTVKDARAFTRVRWVQRGFRRSPGVQSSGATQRNLMGQLDGTVNPVPGTADFDQAVWVQDGPEWLRGGTTLVLRRIRMELEKADEADPAGKEFAVGRRLTSGAPLTGRHEHDEPDFDAVDSAGFPVIAENAHIRLAHVDSPRLRMLRRPYNYDEGLTADGRSDAGLLFAAYQADIDRQFIPVQRRLDEGGDLLNLWTTPIGSAVFAIPPGCDENGWIGQGLLG
# B8: protein G95D/P94L (Streptomyces coelicolor, UniProt P16544); chain MATQDSEVALVTGATSGIGLEIARRLGKEGLRVFVCARGEEGLRTTLKELREAGVEADGRTCDVRSVPEIEALVAAVVERYGPVDVLVNNAGRLDGGATAELADELWLDVVETNLTGVFRVTKQVLKAGGMLERGTGRIVNIASTGGKQGVVHAAPYSASKHGVVGFTKALGLELARTGITVNAVCPGFVETPMAASVREHYSDIWEVSTEEAFDRITARVPIGRYVQPSEVAEMVAYLIGPGAAAVTAQALNVCGGLGNY
# B9: enzyme (Mortierella alpina, UniProt U5Y6A8); chain MAPPHVVDEQVRRRIVVEDEIQSKKQFERNYVPMDFTIKEIRDAIPAHLFIRDTTKSILHVVKDLVTIAIVFYCATFIETLPSLALRVPAWITYWIIQGTVMVGPWILAHECGHGAFSDSKTINTIFGWVLHSALLVPYQAWAMSHSKHHKGTGSMSKDVVFIPATRSYKGLPPLEKPAAEEEVLEQEHHHHEESIFAETPIYTLGALFFVLTLGWPLYLIMNFSGHEAPHWVNHFQTVAPLYEPHQRKNIFYSNCGIVAMGSILTYLSMVFSPLTVFMYYGIPYLGVNAWIVCITYLQHTDPKVPHFRDNEWNFQRGAACTIDRSFGTIVNHLHHHIGDSHQCHHMFSQMPFYNAVEATKHLKAKLGKYYIFDDTPIAKALYRNWRECKFVEDEGDVVFYKH
# Sequence of UniProt P0AFG3 (whole entry, looked up): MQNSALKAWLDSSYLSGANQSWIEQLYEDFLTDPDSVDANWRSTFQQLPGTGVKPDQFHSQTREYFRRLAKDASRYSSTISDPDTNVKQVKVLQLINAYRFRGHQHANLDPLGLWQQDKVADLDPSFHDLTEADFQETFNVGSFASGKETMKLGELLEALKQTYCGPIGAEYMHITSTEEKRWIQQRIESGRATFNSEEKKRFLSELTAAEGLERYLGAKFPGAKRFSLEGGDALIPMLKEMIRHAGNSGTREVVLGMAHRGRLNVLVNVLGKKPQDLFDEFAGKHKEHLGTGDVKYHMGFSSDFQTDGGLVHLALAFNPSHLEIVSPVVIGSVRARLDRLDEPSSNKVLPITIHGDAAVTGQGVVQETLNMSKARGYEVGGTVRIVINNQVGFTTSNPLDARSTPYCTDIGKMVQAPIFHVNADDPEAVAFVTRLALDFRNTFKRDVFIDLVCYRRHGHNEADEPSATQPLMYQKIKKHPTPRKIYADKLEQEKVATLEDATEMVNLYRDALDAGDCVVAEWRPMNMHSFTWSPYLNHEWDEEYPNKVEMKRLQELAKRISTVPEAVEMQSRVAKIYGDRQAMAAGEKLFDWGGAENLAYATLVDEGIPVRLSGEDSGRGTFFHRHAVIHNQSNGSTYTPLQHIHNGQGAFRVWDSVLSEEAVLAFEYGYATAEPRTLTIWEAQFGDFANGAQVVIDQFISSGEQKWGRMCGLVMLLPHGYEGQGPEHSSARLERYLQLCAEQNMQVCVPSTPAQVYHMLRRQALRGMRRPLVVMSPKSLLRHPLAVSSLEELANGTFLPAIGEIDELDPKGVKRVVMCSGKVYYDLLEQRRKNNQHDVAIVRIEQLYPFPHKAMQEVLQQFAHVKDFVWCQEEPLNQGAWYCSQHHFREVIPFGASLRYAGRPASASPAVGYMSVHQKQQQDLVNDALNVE
# Sequence of UniProt P12081 (whole entry, looked up): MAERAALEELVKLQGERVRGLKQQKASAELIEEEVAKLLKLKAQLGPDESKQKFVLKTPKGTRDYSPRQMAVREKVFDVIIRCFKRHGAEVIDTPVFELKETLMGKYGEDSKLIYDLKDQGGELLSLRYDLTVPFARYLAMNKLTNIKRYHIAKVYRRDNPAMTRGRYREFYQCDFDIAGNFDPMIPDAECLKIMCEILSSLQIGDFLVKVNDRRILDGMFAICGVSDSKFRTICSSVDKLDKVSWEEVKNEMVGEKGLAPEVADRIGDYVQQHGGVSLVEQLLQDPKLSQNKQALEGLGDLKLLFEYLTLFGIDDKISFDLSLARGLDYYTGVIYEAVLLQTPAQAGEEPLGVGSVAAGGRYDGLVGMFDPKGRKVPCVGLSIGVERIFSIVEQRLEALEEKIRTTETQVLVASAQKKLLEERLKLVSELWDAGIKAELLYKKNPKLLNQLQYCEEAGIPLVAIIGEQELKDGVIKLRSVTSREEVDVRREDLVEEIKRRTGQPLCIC
# Sequence of UniProt Q8C0L6 (whole entry, looked up): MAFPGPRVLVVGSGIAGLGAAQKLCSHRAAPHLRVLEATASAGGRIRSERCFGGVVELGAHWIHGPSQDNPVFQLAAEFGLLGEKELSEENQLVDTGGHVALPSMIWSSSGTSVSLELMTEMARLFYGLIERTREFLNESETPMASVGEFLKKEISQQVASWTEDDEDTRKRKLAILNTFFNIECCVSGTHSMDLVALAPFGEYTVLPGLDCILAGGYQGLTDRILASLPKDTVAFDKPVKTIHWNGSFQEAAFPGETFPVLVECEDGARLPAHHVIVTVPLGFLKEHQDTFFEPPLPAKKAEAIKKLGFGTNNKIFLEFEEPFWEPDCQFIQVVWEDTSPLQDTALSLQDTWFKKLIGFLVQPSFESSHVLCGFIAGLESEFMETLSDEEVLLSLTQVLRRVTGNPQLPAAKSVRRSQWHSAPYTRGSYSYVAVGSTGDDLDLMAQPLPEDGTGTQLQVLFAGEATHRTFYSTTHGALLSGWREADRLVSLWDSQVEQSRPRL
# Sequence of UniProt Q99042 (whole entry, looked up): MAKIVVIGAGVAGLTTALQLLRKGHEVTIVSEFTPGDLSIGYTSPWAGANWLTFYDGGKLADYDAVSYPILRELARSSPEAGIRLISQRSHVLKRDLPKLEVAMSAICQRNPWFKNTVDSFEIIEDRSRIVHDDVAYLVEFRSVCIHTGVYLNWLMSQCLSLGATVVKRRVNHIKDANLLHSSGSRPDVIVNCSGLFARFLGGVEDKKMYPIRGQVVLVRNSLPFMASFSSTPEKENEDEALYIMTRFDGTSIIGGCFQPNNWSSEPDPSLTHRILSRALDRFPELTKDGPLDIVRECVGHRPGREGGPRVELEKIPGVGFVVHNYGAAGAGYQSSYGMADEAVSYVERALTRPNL
# Sequence of UniProt P38999 (whole entry, looked up): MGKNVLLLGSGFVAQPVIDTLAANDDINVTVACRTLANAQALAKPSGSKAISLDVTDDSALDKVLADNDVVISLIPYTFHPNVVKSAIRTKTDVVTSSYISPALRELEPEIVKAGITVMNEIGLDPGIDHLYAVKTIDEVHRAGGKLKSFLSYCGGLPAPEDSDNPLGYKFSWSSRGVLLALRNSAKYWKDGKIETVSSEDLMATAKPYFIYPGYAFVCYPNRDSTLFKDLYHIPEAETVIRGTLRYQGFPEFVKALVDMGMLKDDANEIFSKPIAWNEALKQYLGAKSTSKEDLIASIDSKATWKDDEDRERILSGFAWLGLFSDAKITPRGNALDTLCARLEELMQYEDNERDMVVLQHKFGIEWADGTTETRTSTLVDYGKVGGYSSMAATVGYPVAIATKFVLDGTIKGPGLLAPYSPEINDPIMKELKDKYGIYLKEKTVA
Substance,substrate,pH,temperature,setting,with,kcat [s⁻¹]
B1 (oxdC),O=C(O)C(=O)O,pH 4.2,,,"Mn 1.87 per monomer, Triton X-100.2%",53 ± 1.5
B2 (protein),Cc1cn([C@H]2C[C@H](O)[C@@H](COP(=O)(O)OP(=O)(O)O[C@H]3O[C@H](C)C(=O)[C@H](O)[C@H]3O)O2)c(=O)[nH]c1=O,pH 7.5,,,NADPH 0.2 mM,4.4 ± 0.3
"sucA (Escherichia coli, UniProt P0AFG3)",O=C(O)C(=O)CO,pH 6.8,37 °C,,,0.0139 ± 0.0003
B3 (SUOX R529M/V531M/Y400N),O=[N+]([O-])O,pH 7,25 °C,,dithionite-reduced methyl viologen,1.07
"Paox (Mus musculus, UniProt Q8C0L6)",c1ccc(CNCCCCNCc2ccccc2)cc1,pH 8.6,30 °C,,,0.9 ± 0.03
B4 (enzyme),CC(=O)Oc1ccc([N+](=O)[O-])cc1,pH 6,30 °C,,,29.1 ± 4.3
B5 (LYS1 C205S/D319A),NC(=O)C1=CN([C@@H]2O[C@H](COP(=O)(O)OP(=O)(O)OC[C@H]3O[C@@H](n4cnc5c(N)ncnc54)[C@H](O)[C@@H]3O)[C@@H](O)[C@H]2O)C=CC1,pH 7.2,25 °C,,Lys and α-Kg,35 ± 5
"alanine aminopeptidase (Neisseria meningitidis, UniProt Q9JYV4)",N=C(NCCC[C@H](N)C(=O)Nc1ccc2c(CC(N)=O)cc(=O)oc2c1)N[N+](=O)[O-],pH 7.5,37 °C,,,7.25 ± 0.2
B6 (protein F222A),CC(C)=CCOP(=O)(O)OP(=O)(O)O,,,,tri-Tyr peptide acceptor,0.0423 ± 0.003
B7 (Tcur_2987 W263A),Nc1c(S(=O)(=O)O)cc(Nc2cccc(S(=O)(=O)CCOS(=O)(=O)O)c2)c2c1C(=O)c1ccccc1C2=O,pH 3,,sigmoidal kinetics,H2O2 1 mM,52 ± 1
B8 (protein G95D/P94L),O[C@H]1CCCc2ccccc21,pH 7.4,,"phosphate 400 mM, NADPH 250 µM printed","NADP+, reverse reaction",0.28 ± 0.03
"DAO1 (Trigonopsis variabilis, UniProt Q99042)",CN(C)c1ccc2nc3ccc(N(C)C)c([N+](=O)[O-])c3[s+]c2c1,pH 8,22 °C,apparent,,0.19 ± 0.008
enzyme (UniProt A0A7J5BGR1),C=CCc1ccc(O)c(OC)c1,pH 8,25 °C,,,0.75
"Saccharopine reductase (Saccharomyces cerevisiae, UniProt P38999)",N[C@@H](CCCCN[C@@H](CCC(=O)O)C(=O)O)C(=O)O,pH 9,25 °C,,saccharopine,13 ± 1
"AphC (Rhodococcus jostii, UniProt Q0S9X1)",CCc1ccc(O)c(O)c1,pH 8,25 °C,apparent,O2,0.246
B9 (enzyme),CCCCC/C=C\C/C=C\C/C=C\C/C=C\CCCC(=O)SCCNC(=O)CCNC(=O)[C@H](O)C(C)(C)COP(=O)(O)OP(=O)(O)OC[C@H]1O[C@@H](n2cnc3c(N)ncnc32)[C@H](O)[C@@H]1OP(=O)(O)O,pH 7.5,28 °C,,,0.045 ± 0.00167
"HARS1 (Homo sapiens, UniProt P12081)",Nc1ncnc2c1ncn2[C@@H]1O[C@H](COP(=O)(O)OP(=O)(O)OP(=O)(O)O)[C@@H](O)[C@H]1O,pH 7.5,,,"histidine, tRNAHis 5 µM, MgCl2 10 mM, KCl 150 mM",5.8 ± 0.2

# For quick reference, copied from above:
Substance,substrate,pH,temperature,setting,with,kcat [s⁻¹]
B2 (protein),Cc1cn([C@H]2C[C@H](O)[C@@H](COP(=O)(O)OP(=O)(O)O[C@H]3O[C@H](C)C(=O)[C@H](O)[C@H]3O)O2)c(=O)[nH]c1=O,pH 7.5,,,NADPH 0.2 mM,4.4 ± 0.3
"sucA (Escherichia coli, UniProt P0AFG3)",O=C(O)C(=O)CO,pH 6.8,37 °C,,,0.0139 ± 0.0003
